Results collected from several papers.
Parts stem from different laboratories: compare values within a part only.
Chain of UniProt Q9UBS0 (whole entry, looked up): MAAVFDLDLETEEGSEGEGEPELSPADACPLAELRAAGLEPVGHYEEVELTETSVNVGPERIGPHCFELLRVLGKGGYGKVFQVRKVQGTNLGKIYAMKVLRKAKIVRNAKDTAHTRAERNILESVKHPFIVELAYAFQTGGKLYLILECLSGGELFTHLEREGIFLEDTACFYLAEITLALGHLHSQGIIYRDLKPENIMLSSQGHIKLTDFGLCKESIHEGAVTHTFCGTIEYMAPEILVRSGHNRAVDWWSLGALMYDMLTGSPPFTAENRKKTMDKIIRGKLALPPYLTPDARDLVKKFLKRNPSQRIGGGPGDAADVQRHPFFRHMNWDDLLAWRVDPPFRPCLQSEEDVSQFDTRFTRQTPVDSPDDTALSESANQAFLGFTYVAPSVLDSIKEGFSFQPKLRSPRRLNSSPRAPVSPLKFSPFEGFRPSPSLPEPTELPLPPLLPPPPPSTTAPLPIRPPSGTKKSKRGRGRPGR
Chain of UniProt Q8N5S9 (whole entry, looked up): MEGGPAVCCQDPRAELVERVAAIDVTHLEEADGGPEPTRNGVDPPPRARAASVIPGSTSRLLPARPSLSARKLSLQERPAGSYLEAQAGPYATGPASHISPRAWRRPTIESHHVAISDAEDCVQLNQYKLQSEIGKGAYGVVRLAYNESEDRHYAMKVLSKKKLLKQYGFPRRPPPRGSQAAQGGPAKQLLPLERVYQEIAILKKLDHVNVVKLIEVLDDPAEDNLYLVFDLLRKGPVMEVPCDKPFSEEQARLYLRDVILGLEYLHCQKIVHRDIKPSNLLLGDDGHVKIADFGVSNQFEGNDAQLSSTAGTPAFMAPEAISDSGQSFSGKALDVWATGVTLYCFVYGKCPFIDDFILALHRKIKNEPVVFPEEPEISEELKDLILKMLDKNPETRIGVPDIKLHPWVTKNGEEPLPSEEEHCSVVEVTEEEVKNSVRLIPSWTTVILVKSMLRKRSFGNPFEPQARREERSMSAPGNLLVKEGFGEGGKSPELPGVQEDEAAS
Chain of UniProt Q05513 (whole entry, looked up): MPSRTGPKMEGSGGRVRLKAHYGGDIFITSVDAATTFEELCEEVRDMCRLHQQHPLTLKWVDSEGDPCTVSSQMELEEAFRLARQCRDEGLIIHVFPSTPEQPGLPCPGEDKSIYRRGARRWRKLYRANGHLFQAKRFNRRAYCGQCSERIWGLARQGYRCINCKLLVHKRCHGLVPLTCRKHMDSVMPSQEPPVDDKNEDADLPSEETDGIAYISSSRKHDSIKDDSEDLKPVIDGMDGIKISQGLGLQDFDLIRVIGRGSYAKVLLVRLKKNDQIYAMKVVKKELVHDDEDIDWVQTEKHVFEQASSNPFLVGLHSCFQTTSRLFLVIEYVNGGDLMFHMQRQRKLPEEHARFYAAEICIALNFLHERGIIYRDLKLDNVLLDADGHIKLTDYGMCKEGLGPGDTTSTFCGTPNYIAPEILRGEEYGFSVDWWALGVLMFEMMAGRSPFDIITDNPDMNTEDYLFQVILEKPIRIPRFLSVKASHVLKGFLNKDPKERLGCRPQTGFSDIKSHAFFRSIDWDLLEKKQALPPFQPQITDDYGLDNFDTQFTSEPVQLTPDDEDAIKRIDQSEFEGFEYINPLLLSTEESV
Chain of UniProt O15146 (whole entry, looked up): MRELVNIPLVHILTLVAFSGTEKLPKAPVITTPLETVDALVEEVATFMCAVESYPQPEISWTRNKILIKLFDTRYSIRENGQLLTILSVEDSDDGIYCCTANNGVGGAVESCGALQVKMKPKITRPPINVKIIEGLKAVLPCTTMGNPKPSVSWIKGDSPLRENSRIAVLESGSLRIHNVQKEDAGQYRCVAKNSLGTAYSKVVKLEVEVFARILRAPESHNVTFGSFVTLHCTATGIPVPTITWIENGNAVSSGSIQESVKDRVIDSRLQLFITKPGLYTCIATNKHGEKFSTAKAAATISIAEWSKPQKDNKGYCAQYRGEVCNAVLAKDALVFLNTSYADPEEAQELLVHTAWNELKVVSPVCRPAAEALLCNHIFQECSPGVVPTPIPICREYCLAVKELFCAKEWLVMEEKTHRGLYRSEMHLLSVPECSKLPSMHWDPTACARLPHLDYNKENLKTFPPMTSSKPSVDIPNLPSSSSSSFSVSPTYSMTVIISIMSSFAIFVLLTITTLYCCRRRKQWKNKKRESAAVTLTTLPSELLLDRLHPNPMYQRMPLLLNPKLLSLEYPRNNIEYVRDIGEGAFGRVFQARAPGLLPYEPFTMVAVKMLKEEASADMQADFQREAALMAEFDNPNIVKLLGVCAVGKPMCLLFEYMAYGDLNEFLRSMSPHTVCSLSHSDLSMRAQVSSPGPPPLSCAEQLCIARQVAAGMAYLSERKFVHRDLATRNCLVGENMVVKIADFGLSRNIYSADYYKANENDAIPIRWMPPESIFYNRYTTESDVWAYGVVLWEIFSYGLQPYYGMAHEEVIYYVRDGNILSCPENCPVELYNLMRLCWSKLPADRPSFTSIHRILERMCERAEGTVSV
Chain of UniProt P54753 (whole entry, looked up): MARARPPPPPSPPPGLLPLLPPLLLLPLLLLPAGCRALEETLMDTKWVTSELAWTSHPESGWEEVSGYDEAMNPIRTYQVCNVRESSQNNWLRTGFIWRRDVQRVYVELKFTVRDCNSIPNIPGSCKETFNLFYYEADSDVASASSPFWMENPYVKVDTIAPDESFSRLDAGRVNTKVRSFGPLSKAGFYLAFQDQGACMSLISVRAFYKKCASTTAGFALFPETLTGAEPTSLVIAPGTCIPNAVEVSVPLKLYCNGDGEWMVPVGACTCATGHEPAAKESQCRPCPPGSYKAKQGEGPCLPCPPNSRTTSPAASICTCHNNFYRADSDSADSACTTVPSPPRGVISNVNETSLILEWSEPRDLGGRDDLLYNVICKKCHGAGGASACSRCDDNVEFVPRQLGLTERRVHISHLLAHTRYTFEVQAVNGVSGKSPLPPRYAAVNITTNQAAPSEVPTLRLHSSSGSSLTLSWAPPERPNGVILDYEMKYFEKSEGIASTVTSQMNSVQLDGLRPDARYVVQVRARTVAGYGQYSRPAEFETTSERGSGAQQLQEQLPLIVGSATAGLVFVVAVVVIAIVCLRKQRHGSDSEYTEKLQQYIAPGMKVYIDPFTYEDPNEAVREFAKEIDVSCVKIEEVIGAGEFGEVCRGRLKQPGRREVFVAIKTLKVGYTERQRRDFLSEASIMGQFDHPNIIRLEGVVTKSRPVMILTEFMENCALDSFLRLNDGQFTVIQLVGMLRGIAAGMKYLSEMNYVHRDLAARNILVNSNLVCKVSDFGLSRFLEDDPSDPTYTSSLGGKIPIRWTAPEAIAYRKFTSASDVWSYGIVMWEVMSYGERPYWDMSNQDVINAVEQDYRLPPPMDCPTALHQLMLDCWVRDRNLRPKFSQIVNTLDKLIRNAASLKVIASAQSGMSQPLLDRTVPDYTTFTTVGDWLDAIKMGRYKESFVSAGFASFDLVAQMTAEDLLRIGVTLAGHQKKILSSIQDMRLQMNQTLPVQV
Chain of UniProt P11309 (whole entry, looked up): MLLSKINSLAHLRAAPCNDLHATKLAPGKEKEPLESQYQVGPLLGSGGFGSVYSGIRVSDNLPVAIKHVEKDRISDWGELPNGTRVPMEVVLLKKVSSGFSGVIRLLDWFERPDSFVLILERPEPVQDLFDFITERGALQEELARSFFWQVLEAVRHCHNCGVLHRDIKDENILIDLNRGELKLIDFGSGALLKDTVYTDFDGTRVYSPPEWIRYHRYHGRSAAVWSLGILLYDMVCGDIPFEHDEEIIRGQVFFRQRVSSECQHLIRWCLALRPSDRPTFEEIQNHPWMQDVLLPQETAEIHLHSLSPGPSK
Chain of UniProt P49760 (whole entry, looked up): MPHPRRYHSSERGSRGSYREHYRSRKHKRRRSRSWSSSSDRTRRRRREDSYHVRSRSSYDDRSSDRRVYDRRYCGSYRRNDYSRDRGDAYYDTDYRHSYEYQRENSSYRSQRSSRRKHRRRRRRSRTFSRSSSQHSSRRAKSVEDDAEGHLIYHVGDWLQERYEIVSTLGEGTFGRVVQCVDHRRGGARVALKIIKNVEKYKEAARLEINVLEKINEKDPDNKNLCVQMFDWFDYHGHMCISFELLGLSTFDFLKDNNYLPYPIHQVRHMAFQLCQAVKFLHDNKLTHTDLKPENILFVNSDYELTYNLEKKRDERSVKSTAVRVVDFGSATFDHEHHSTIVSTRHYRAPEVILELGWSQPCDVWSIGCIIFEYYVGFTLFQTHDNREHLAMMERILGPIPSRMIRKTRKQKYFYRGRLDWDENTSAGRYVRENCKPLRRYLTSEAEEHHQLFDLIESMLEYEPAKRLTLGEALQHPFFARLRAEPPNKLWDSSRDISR

Study 1
Cell line: normal-adjacent organoid sample E
Technique: CellTiter-Glo
Concentration: 0.1 µM
Setting: replicate mean
Reference: DMSO
Endpoint: viability
Structure (SMILES) = O=S(=O)(NC1CCC(c2cc(F)ccc2F)(S(=O)(=O)c2ccc(Cl)cc2)CC1)C(F)(F)F (centres unmarked); value = 87.5%
Structure (SMILES) = Cc1c[nH]c2nccc(Oc3c(F)cc(Nc4cc(Cl)nc(N)n4)cc3F)c12; value = 132%
Structure (SMILES) = CN1C(=O)[C@@H](N2CCc3cn(Cc4ccccc4)nc3C2=O)COc2ccccc21; value = 112%
Structure (SMILES) = O[C@]1(C(F)(F)F)CCCC[C@H]1Nc1ccc(F)cc1; value = 94.6%
Structure (SMILES) = Nc1c(C(=O)NCc2ccc(C(=O)NCCCC3CCCCC3)cc2)cnn1-c1ccccc1; value = 122%
Structure (SMILES) = CS(=O)(=O)N1CCCC(NC(=O)[C@H](CCC2CCCCC2)NC(=O)c2ccc(CNC(=O)c3cnc4ccccn34)cc2)C1 (some centres unmarked); value = 136%
Structure (SMILES) = N#Cc1ccc(Nc2ccc3[nH]c(=O)[nH]c3c2)c(Cl)c1; value = 114%

Study 2
Target: Hepatocyte nuclear factor 3-alpha (Foxa1, Mus musculus, UniProt P35582, residues 1-468, full length assumed)
Chain of UniProt P35582 (whole entry, looked up): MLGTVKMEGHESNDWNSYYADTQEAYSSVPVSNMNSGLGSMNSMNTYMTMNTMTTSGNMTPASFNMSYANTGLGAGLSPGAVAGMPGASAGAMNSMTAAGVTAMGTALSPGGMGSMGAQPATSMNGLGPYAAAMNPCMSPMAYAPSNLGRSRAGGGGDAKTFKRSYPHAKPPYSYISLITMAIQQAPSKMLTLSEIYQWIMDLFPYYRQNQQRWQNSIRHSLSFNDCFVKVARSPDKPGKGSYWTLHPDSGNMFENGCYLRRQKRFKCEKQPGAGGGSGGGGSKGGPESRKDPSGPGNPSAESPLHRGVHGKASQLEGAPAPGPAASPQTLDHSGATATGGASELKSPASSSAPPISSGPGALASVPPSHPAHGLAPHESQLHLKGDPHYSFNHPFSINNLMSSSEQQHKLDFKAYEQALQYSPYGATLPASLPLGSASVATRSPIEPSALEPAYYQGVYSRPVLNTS
Technique: EMSA with sequencing
Form: double-stranded DNA, one strand shown
Medium: in vitro
Concentration: 10 and 20 nM
Setting: whole designed probe, mean of two concentrations, ends assumed
Reference: negative control set to 0
Direction: higher = stronger binding
Endpoint: normalised bound fraction
Sequence = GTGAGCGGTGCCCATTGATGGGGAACATCTTCCCCCTCTTCCTTGCCCCACCAGCTCACCTACGGGGGTTATTTGCACAAAGGAAAATAAATAAAGCCGGCATTCGTTAACGCAGTTCACGCGCATACTGCTGTTTGCTCTGCATGAATCATGGTCCTTACGCGACGCCAGGCTCCGGGAGAGCAAAGCACCGTGTCAGGCGCATGATCCGGGGTGGCCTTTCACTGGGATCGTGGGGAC; value = 0.393 ratio
Sequence = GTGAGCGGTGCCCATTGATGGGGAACATCTTCCCCCTCTTCCTTGCCCCACCAGCTCACCTTCCCGGGTTATTTGCAGATAGGAAAATAAATAAAGCCGGCATTCGTTAACCCTCTTCACGCGCATACTGCTGTTTGCTCTGGATCTAACATGGTCCTTTGGCGAGGCGTGGCTCCGGGAGAGCAAAGCACCGTGTCAGGGCCATGATCCGGGGTGGCCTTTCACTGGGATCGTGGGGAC; value = 0.352 ratio
Sequence = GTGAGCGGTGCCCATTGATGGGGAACTGCACCACTCAGCCCCTCCTAGTCCGCTGGAGAAAGTGGCTGAGGGGGTGGTGGGGGATAATTGCATTTCCAAAGTCCGGGCAATCAGCCAATGTAATCTGGCACCTGCGTCACTGTGTGGGCTCTCTAGGCAACAGGTAAAATACATCAAATACACACAATTTCCTGACATTCCAATGCATTTCTGCGTGAGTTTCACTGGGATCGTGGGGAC; value = 0.0217 ratio
Sequence = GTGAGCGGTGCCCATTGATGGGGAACTTTTGGGGGGTGGGGTGGGTGAGTGGACACCAGAACCCAGACTTGAAACCTGTGCTTGATTGAGCACCCTCAGGGCAGCCGAGCCAGCACTGTGTTTACTCTTCCTCCCCCACCCACATCACAGCAAAGAAGCGCAACTTAACACATGACTGGCCTGCCCGGGGCGCGGGGCGGGCACGAAAAATGAAGCACTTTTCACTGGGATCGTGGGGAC; value = 0.318 ratio
Sequence = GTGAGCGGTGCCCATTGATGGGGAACAGAACTAGAGGGTGGTGAGTTTTGTGTGATAGAGGCGTAGAATGCAGCAGACACTGAGCATTGGAAACTTCTGGCTGCTGGCCTGTGTGATGCATGTTTACTTTGCTTTTTTTTTTTTTTTTTAATGACAAAGGAACATGCTTTTGTTTGTTTTAGGAGAAGAGGGATTGAAGGAACCAAGGGTAGCTGTGGATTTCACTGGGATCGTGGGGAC; value = 0.506 ratio
Sequence = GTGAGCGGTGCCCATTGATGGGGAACGCATGAAGCGTTGGGTCCAACTGCATGAAGAGCACTGAGTCTCTCAGAGATGAGAGCATAAATGACTCAATCTTGATAGGTCTTGGTAAGCAAAGTAAACAAGAGCACATGGAATCACCAATAATTCTGCCTTTCAGAAGGCAGGATCCCCGCTCCAGATATCAGAGCCAATGGGTCTGGAAAGGCTGCATTTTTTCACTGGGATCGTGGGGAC; value = 0.47 ratio
Sequence = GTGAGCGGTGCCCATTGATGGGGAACCCACTCAGCTGTTTTCTTAAACTTGGTTGAATAACTGGTATTCTTCCTGCTCACAAAGTCTTTGTTAGTGTGCATATTGCAAAACCATCCTAAGTAAACAGTCTGTGTCATCTGTATTAAAGGGAAGTTATGCATGGATTAGTGTATAATAGCATGGGTTAGGGAGAAAAATGAGTCACCAAAGTAGCTGGTTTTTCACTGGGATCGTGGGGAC; value = 0.44 ratio
Sequence = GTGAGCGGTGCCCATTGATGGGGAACCCTAGTTAAGAAGAGGAAGATGGAAGTACTAATACAAAGTGTAGCTAAAAGACATTGCTGGGCTTTAACTTCTGCCTCCCATTCTCTGTTAAGTAAACAAGAAAATGGAGGCAAACAAGCTCCCTAGGTAGTGCTAAGCCACACGTTCTGACTGTGAGAAAGAATCTCTTGTGGAGAAAATGAAATAAACATATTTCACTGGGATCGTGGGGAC; value = 0.549 ratio

Study 3
SMILES: O=C(Nc1ccc(Cl)cc1)c1ccccc1NCc1ccncc1
Effect on: enzyme activity
Mode: inhibitor
Concentration: 0.5 µM
Reference: control
Endpoint: remaining activity
target = CLK2 (Homo sapiens, UniProt P49760); value = 91.8%
target = SIK2 (Homo sapiens, UniProt Q9H0K1); value = 94.8%
target = EPHA2 (Homo sapiens, UniProt P29317); value = 101%
target = PIM1 (Homo sapiens, UniProt P11309); value = 98.9%
target = MELK (Homo sapiens, UniProt Q14680); value = 92.3%
target = CAMKK1 (Homo sapiens, UniProt Q8N5S9); value = 98.5%
target = RPS6KB2 (Homo sapiens, UniProt Q9UBS0); value = 105%
target = PAK6 (Homo sapiens, UniProt Q9NQU5); value = 101%
target = EPHA6 (Homo sapiens, UniProt Q9UF33); value = 89.8%
target = PAK1 (Homo sapiens, UniProt Q13153); value = 94.9%
target = PRKCZ (Homo sapiens, UniProt Q05513); value = 100%
target = EPHB3 (Homo sapiens, UniProt P54753); value = 96.9%
target = MUSK (Homo sapiens, UniProt O15146); value = 95.9%

Mixed results
Structure (SMILES) = CCOC(=O)[C@@H]1CSCC(=O)N[C@H](CC)C(=O)N(C)[C@@H](C)C(=O)N[C@H](CC(C)C)C(=O)N2CCC[C@@H]2C(=O)N(CC(C)C)CC(=O)N[C@@H](CC(C)C)C(=O)N(C)[C@H](C)C(=O)N[C@@H](CC(C)C)C(=O)N1C; medium = hydrocarbon/water; endpoint = logD; value = 1.02

Excerpt of the above (study 1):
Structure (SMILES) = O=S(=O)(NC1CCC(c2cc(F)ccc2F)(S(=O)(=O)c2ccc(Cl)cc2)CC1)C(F)(F)F (centres unmarked); value = 87.5%
Structure (SMILES) = Cc1c[nH]c2nccc(Oc3c(F)cc(Nc4cc(Cl)nc(N)n4)cc3F)c12; value = 132%
